Published values collected from several papers.
Each line is one published result; not all experiments were run side by side. Several values in a cell are separate wells, animals, samples, runs or records. Numbers after ± are the reported error.

CC1(N(CC(=O)O)CC(=O)O)CN(CC(=O)O)CCN(CC(=O)O)C1 — result for “protonation constant (log)”: 10.3 (pH-potentiometry, refers to: logK1H; 0.15 M NaClO4; 25 °C).
The SUV of Cc1nc(N)nc2c1C(=O)N[C@@H](c1ccc(F)cc1-c1cccc(O[11CH3])n1)C2 is reported as 2 ± 0.4 (ex vivo biodistribution; mice, U87 subcutaneous xenograft, lungs; 60 min post-injection, baseline, vehicle pre-treatment).
Under “hydrolysis activation energy”, CCN(CC)c1ccc2c(c1)O[B-]1(c3ccccc3)OC(=O)C(c3ccccc3)=N[N+]1=C2 (stereo not shown) is recorded as 20.8 kcal/mol (UV/vis decay; aqueous buffer).
CN1CCC[C@]1(C)/C=C/S(=O)(=O)NC(=O)Nc1c2c(cc3c1CC(O)C3)CCC2 (stereo partly shown) has an AUC(0-24) of 104 µg·h/mL (human, plasma; oral, 50 mg twice daily of parent drug, day 14, metabolite of dosed drug).
For CC(C)C[C@H](NC(=O)[C@@H](CCCCNC(=O)[C@@H](Cc1ccccc1)NC(=O)CCCCCCCNC(=O)CN1CCN(CC(=O)O)CCN(CC(=O)O)CCN(CC(=O)O)CC1)NC(=O)[C@H](Cc1ccc(O)cc1)NC(=O)[C@H](CO)NC(=O)[C@H](Cc1c[nH]c2ccccc12)NC(=O)[C@H](Cc1c[nH]cn1)NC(=O)[C@@H]1CCC(=O)N1)C(=O)N[C@@H](CCCNC(=N)N)C(=O)N1CCC[C@H]1C(=O)NCC(N)=O [indium-111 labelled], the tissue uptake was 0.58 ± 0.1 %ID/g (biodistribution; male athymic nude mice, DU-145 prostate cancer xenograft, lung; intravenous, 0.037 MBq, 1 h post-injection).
For C=C(NC(=O)c1csc(-c2nc3c(cc2O)-c2nc(cs2)C(=O)NC(C(C)O)C(=O)NC(=C(C)OC)c2nc(cs2)C(=O)NC2c4nc(cs4)C(=O)NC(COC(=O)c4c5c6c(cccc6n4O)COC(=O)C(OC4CC(C)(O)C(N(C)C)C(C)O4)C2OC5)c2nc-3cs2)n1)C(N)=O (stereo not shown), the half-life was 6.24 h (female cynomolgus monkey, plasma; intravenous, 9 mg/kg, single dose, infusion).
With O=C(Nc1cnccc1-c1ccc([18F])nc1)c1ccnc(NC(=O)C2CC2)c1 the SUV was 0.203 (FVB/NJ mice, both sexes, brain; intravenous, 20 min, median, P-gp inhibitor pretreatment, together with: tariquidar 15 mg/kg iv).
COc1ccc2nc(-c3ccc(N(C)C)cc3)sc2c1 gave a brightness of 56 M⁻¹ cm⁻¹ (PBS; free dye).
CN(CCNCc1ccncc1O)CCNCc1ccncc1O: “protonation constant logK4H” 3.6 (potentiometric titration; aqueous KCl solution; 1 mM, 25 °C, 0.1 M KCl).
Under “mean platelet volume”, COc1ccc2c(c1)CCn1c[n+]3c(c1-2)-c1ccc(OC)cc1CC3 is recorded as 5.58 ± 0.17 fL (female NSG mice, blood; 6 mg/kg, day 20, 5 days per week).
With CN1CCC[C@]1(C)/C=C/S(=O)(=O)NC(=O)Nc1c2c(cc3c1CCC3O)CCC2 (stereo partly shown) the AUC(0-24) was 146 µg·h/mL (human, plasma; oral, 12.5 mg twice daily of parent drug, day 1, metabolite of dosed drug).
C/C(N)=N/C(=N\S(=O)(=O)c1ccc(C(F)(F)F)cc1)N1C[C@H](c2ccccc2)C(c2ccc(Cl)cc2)=N1 has a Cmax of 1190 ng/mL (female cynomolgus monkey, plasma; oral, 6 mg/kg).
O=S1(=O)CC2CCCCC2CS1 (stereo not shown) gave a solubility of 49 mM (phase solubility, NMR; water; 25 °C, together with: hydroxypropyl-β-cyclodextrin 457 mM).
For CCCC[C@H]1C(=O)N(C)[C@@H](CCCC)C(=O)N[C@@H](CCCCNC(=S)Nc2ccc(CN3CCN(CC(=O)O)CCN(CC(=O)O)CC3)cc2)C(=O)N[C@H](C(=O)NCC(N)=O)CSCC(=O)N[C@@H](Cc2ccc(O)cc2)C(=O)N(C)[C@@H](C)C(=O)N[C@@H](CC(N)=O)C(=O)N2CCC[C@H]2C(=O)N[C@@H](Cc2cnc[nH]2)C(=O)N[C@@H](CCC(=O)O)C(=O)N2C[C@H](O)C[C@H]2C(=O)N[C@@H](Cc2c[nH]c3ccccc23)C(=O)N[C@@H](CO)C(=O)N[C@@H](Cc2cn(CC(=O)O)c3ccccc23)C(=O)N1C [fluorine-18 labelled], the SUV was 1.92 ± 0.3 SUV (PET, refers to: PD-L1; huCD34 mouse A-375 xenograft, tumour core within 3 mm; anti-PD-1 monotherapy).
With [123I]c1ccc2nc(-c3ccc(-n4ccnn4)nc3)cn2c1 the tracer uptake was 0.105 %ID/g (male Wistar rat, kidney; intravenous, 4 MBq, 3 h).
C=CC(=O)Nc1cc(Nc2nccc(-c3cn(C)c4ccccc34)n2)c(OC)cc1N(C)CCNC has a recovery of 101% (storage stability; human plasma; 2 h, on ice, LQC level).
With O=C(Nc1cnccc1-c1ccc([18F])cc1)c1ccnc(NC(=O)C2CC2)c1 the SUV was 0.41 (mice, transgenic, GSK-3β, early-stage, bone; intravenous, dose not given, 120 min, together with: tariquidar 15 mg/kg i.v. pre-dose).
CN1CCC[C@]1(C)/C=C/S(=O)(=O)NC(=O)Nc1c2c(cc3c1C(O)CC3)CCC2 (stereo partly shown) — result for “AUC(0-24) accumulation ratio”: 1.6 (human, plasma; oral, 50 mg twice daily of parent drug, metabolite of dosed drug; reference: day 14 over day 1).
N#Cc1ccnc(N2C(=O)CC[C@H]2C(=O)N(c2cncc(F)c2)[C@H](C(=O)NC2CC(F)(F)C2)c2ccccc2Cl)c1 gave a bioavailability of 49% (cynomolgus monkey, plasma; oral, 10 mg/kg).
O=C(NS(=O)(=O)c1cccs1)c1cc2ccccc2n1Cc1ccc(Br)c2ccccc12 gave an ALT of 48.6 U/L and 55.6 U/L and 69.8 U/L and 51.4 U/L and 56.6 U/L and 49.2 U/L (KM mouse, chronic hyperuricaemia model, serum; dose not given).
CCCCCC(O)C=CC1OC2OC(C2F)C1CC=CCCCC(=O)O (stereo not shown) gave a hydrolysis half-life of 490 h (50 mM phosphate buffer with DMSO; concentration not given, pH 7.40).
CCCCN1C(=O)c2cccc3c(NCCCCCCCCN4CCOCC4)ccc(c23)C1=O — result for “fluorescence quantum yield”: 0.98 (toluene).
CN1C(=O)[C@@H](Cc2ccc(O)c(I)c2)NC(=O)CNC(=O)[C@H](Cc2ccc3ccccc3c2)NC(=O)[C@H](CCCNC(=N)N)NC(=O)[C@H]1CCCNC(=O)c1ccc(CNC(=O)CN2CCN(CC(=O)O)CCN(CC(=O)O)CCN(CC(=O)O)CC2)cc1 [lutetium-177 labelled] — result for “absorbed dose coefficient”: 0.0061 mGy/MBq (extrapolation method 2, OLINDA/EXM, refers to: 177Lu radioactivity; human, extrapolated from mice, heart wall).
With CN(C)C(=O)c1cccc(N2Cc3cn(Cc4ccccc4F)nc3C2)c1 the half-life was 0.95 h (metabolic stability; human, liver microsomes).
Under “hydrolysis activation energy”, CCN(CC)c1ccc2c(c1)O[B-]1(c3c(C)cccc3C)OC(=O)C(c3ccccc3)=N[N+]1=C2 (stereo not shown) is recorded as 21.8 kcal/mol (UV/vis decay; aqueous buffer).
With Cc1nn(-c2nc3c(F)cc(F)cc3s2)c(O)c1C(c1ccc(C(F)(F)F)cc1)c1c(C)nn(-c2nc3c(F)cc(F)cc3s2)c1O the terminal half-life was 4.36 h and 8.85 h and 13.4 h (ICR mouse, plasma; intravenous, 5 mg/kg).
CN1CCC[C@]1(C)/C=C/S(=O)(=O)NC(=O)Nc1c2c(cc3c1CCC3)CC=C2: “AUC(0-24) accumulation ratio” 1.6 (human, plasma; oral, 50 mg twice daily of parent drug, metabolite of dosed drug; reference: day 14 over day 1).
For Nc1nc2cnc(C(=O)N3CCOC[C@@H]3c3ccc(C(F)(F)F)cc3)cc2c2c1COC2, the oral bioavailability was 100% (dog; oral, 2 mg/kg).
The peak radioactivity of [2H]C([2H])([18F])Oc1cc(C(=O)OCC2CCN(CCCC)CC2)ccc1N is reported as 3.1 SUV (PET; rhesus monkey, whole brain; dose not given, average).
For CC(=O)N([O-])CCCCCNC(=O)CCC(=O)N([O-])CCCCCNC(=O)CCC(=O)N([O-])CCCCCN.[89Zr+4], the intact complex was 96.7 ± 2.3% (radio-TLC; aqueous buffer; 3 d, pH 7.2, 37 °C, 89Zr-labelled complex, together with: CoCl2 10-fold excess).
CC(C)c1cnc(-c2cc(Cl)ccc2F)cc1Nc1ccncc1C(=O)NC(CO)CO has a Tmax of 1 h (female C57BL/6 mice, plasma; oral, 30 mg/kg twice daily, day 1, MC-38 tumour-bearing).
Cc1cc(-c2ccc(C(=O)[C@@H]3CCCC[C@H]3C(=O)Nc3cnn4c3C(=O)NCC4)cc2)[nH]n1 — result for “cumulative recovery of radioactivity”: 24.4% (human, faeces; oral, 200 mg, 0-48 h; reference: dose).
Under “hydrolysis half-life, B isomer”, N[C@@H](CC(=O)O)C(=O)OC(C(=O)O)c1ccc(Br)cc1[N+](=O)[O-] (mixture of isomers) is recorded as 28 ± 2 h (1H NMR, dark; 50 mM sodium phosphate; concentration not given, pH 9.0, room temperature, 12.5% DMSO-d6).
With Cc1noc(C)c1Cn1cc(N2C(=O)CN(Cc3cccc(O[C@@H]4O[C@H](C(=O)O)[C@@H](O)[C@H](O)[C@H]4O)c3)C2=O)cn1 the plasma concentration was 5040 ng/mL (Sprague-Dawley rat, male; oral, 30 mg/kg of parent drug, 0.25 h).
For CC(C)(O)c1ncc([S@](N)(=O)=NC(=O)Nc2c3c(cc4c2CCC4)CCC3)s1, “subjects with adverse events” read 50% (refers to: Gastrointestinal disorders; healthy human volunteers; oral, 100 mg once daily, 14 days, spray-dried dispersion).
For CN(C)C(=O)c1cccc(N2Cc3cn(Cc4ccc(F)cc4)nc3C2)c1, the half-life was 1.6 h (metabolic stability; human, liver microsomes).
CC(C)(C)NCC(SS(=O)(=O)O)c1ccccc1 (stereo not shown): “body weight decrease” 4.31% (Swiss Webster mice, Schistosoma mansoni-infected; 100 mg/kg x 4 doses from day 42 post-infection, perfusion day 56 post-infection; reference: vehicle).
Cc1ncsc1-c1ccc(C(C)NC(=O)C2CC(O)CN2C(=O)C(NC(=O)CCCCCCCCCCN2CCCC(Nc3ncc(Cl)c(Nc4ccccc4S(=O)(=O)C(C)C)n3)C2)C(C)(C)C)cc1 (stereo not shown): “log2 fold change” -1.74 (22Rv1; RNA-seq, refers to: ZNF740 mRNA; concentration not given; reference: DMSO).
O=c1c2ccccc2[se]n1CCCCCCn1[se]c2ccccc2c1=O gave a solubility of 1410 ± 130 µg/mL (shake-flask, RP-HPLC; methanol; 24 h, 25 °C).
O=C([O-])CN1CCN(CC(=O)[O-])CCN(C(CO)C(O)CO)CCN(CC(=O)[O-])CC1.[Dy+3] (stereo not shown) has a lanthanide concentration of 13 ± 3.8 nmol/g (cynomolgus monkey, kidney medulla; dose not given, day 5).

Some of these lines once more:
CN1C(=O)[C@@H](Cc2ccc(O)c(I)c2)NC(=O)CNC(=O)[C@H](Cc2ccc3ccccc3c2)NC(=O)[C@H](CCCNC(=N)N)NC(=O)[C@H]1CCCNC(=O)c1ccc(CNC(=O)CN2CCN(CC(=O)O)CCN(CC(=O)O)CCN(CC(=O)O)CC2)cc1 [lutetium-177 labelled] — result for “absorbed dose coefficient”: 0.0061 mGy/MBq (extrapolation method 2, OLINDA/EXM, refers to: 177Lu radioactivity; human, extrapolated from mice, heart wall).
With CN(C)C(=O)c1cccc(N2Cc3cn(Cc4ccccc4F)nc3C2)c1 the half-life was 0.95 h (metabolic stability; human, liver microsomes).
